Assay results gathered from unrelated publications.
Each line is one published result; not all experiments were run side by side. Numbers after ± are the reported error. ≈ marks a conversion by molar mass, not a printed value.
Cell line: Vero

CC(C)C[C@H](NC(=O)[C@H](CC(C)C)NC(=O)[C@H](CCCCN)NC(=O)CNC(=O)[C@H](CC(C)C)NC(=O)CNC(=O)[C@H](CO)NC(=O)[C@H](CC(C)C)NC(=O)[C@H](CC(C)C)NC(=O)[C@H](CO)NC(=O)[C@H](CCCCN)NC(=O)[C@H](CC(C)C)NC(=O)[C@H](CCCCN)NC(=O)[C@H](CCCCN)NC(=O)[C@H](CC(C)C)NC(=O)[C@H](CC(C)C)NC(=O)[C@H](CC(C)C)NC(=O)CNC(=O)[C@H](CO)NC(=O)[C@H](Cc1c[nH]c2ccccc12)NC(=O)[C@@H](N)CCCCN)C(=O)O — TC50 (MTS; 24 h): 15 µM
N#Cc1ccc(Oc2ccc(Cl)cc2Cl)c(O)c1 — IC50 (cytotoxicity): 4 µg/mL (≈ 14.3 µM)
COC(=O)c1cc2c(=O)n3ccccc3nc2n1Cc1ccccc1 — viability (MTT; 100 µM, 24 (unit not given)): 46.9%
O[C@]12C=C(c3nccc4c3[nH]c3ccccc34)[C@@H]3CCN(CCCC/C=C\CC1)C[C@@]31C[C@@H]3/C=C\CCCCN3[C@H]12 — IC50 (cytotoxicity, neutral red; 48 h): 0.975 ± 0.075 µg/mL (≈ 1.78 µM)
CCCCCCNCc1ccc(Oc2ccc(Cl)cc2O)c(Cl)c1 — IC50 (cytotoxicity): 8 µg/mL (≈ 21.7 µM)
CSCC[C@H](NC(=O)[C@@H](NC(C)=O)C(C)C)C(=O)N1CCC[C@H]1C(=O)N[C@@H](Cc1c[nH]c2ccccc12)C(=O)N[C@@H](CC(=O)O)C(=O)N[C@@H](CCC(=O)O)C(=O)N[C@@H](Cc1c[nH]c2ccccc12)C(=O)N[C@@H](CC(C)C)C(=O)N[C@H](C(=O)N[C@@H](CCCCN)C(=O)N[C@@H](CCCNC(=N)N)C(=O)N[C@@H](CCCCN)C(=O)N1CCC[C@H]1C(=O)N[C@@H](CCC(=O)O)C(=O)N[C@@H](CC(C)C)C(=O)N1CCC[C@H]1C(N)=O)[C@@H](C)O — viability (80 µM, overnight): ~77%
CC(C)(C)[Si](C)(C)OC[C@H]1O[C@@H](n2cc(I)c(=O)[nH]c2=O)[C@H](I)[C@@H](O[Si](C)(C)C(C)(C)C)[C@@H]1O[Si](C)(C)C(C)(C)C — CC50 (MTT; DMEM with 10% FBS; 72 h): 9.25 µM
Oc1cc(CNc2ccccc2)ccc1Oc1ccc(Cl)cc1Cl — IC50 (cytotoxicity): 8 µg/mL (≈ 22.2 µM)
CC(C)(C)[Si](C)(C)OC[C@H]1O[C@@H](n2cc(Cl)c(=O)[nH]c2=O)[C@H](I)[C@@H](O[Si](C)(C)C(C)(C)C)[C@@H]1O[Si](C)(C)C(C)(C)C — CC50 (MTT; DMEM with 10% FBS; 72 h): 12.5 µM
COc1cc(O)c2c(c1)/C=C/C[C@H](O)[C@H](O)C(=O)/C=C\C[C@H](C)OC2=O — CC50 (cell growth or viability, resazurin): 38.8 µM
